Measured values from different studies.
Every numbered part comes from another study and shows a few of its results, in no order.

Set 1 — technique: protein-binding microarray; form: double-stranded DNA, one strand shown; sample: in vitro; concentration: 2540 nM top; notes: 60-bp whole probe; added: salmon DNA 0.4 mg/ml; relative to: random background probes; direction: higher = stronger binding; constant ends, left off below: GCCTAGCAC … GTCTTGATTCGCTTGACGCTGCTG
Target: Interferon regulatory factor 3, full length, phosphomimetic (IRF3, Homo sapiens, UniProt Q14653, residues 1-427, S386D/S396D/S398D/S402D/T404D/S405D)
Residues (chain): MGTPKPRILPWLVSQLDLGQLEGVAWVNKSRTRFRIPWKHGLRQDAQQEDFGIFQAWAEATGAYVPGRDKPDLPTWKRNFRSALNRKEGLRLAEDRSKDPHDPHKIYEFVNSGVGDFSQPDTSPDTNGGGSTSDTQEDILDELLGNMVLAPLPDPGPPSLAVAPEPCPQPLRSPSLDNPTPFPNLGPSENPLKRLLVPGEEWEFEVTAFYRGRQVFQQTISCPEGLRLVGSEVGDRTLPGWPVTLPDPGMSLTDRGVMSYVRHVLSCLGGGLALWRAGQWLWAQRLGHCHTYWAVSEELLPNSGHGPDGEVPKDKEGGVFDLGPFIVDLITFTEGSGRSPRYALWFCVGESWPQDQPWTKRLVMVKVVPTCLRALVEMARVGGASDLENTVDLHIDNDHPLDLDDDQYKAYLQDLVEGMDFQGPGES
| Sequence | fitted relative affinity [z-score] |
| --- | --- |
| GACCGTATCGACACTGGGGACGTGCTA | 1.31 |
| TTAGGACTGCTACTGCTTTCGTGCTAG | -0.658 |
| TGTCATATACACATCTTCTGGTGCTAG | 0.646 |
| TCAGTGATAGCTCTGGTACTGTGCTAG | -0.824 |
| GACGATATCGGTCTCGGGACGTGCTAG | 1.39 |
| TTAGTACTGGGGTATCGATTAGTGCTA | -0.389 |
| GACGGACTGGCGTTTCGGGACGTGCTA | 0.279 |
| TTAGAACTGAGTCTCTATTAGTGCTAG | -0.456 |

Set 2 — technique: protein binding microarray; form: double-stranded DNA, one strand shown; sample: in vitro; concentration: not given; relative to: not given; direction: higher = stronger binding
Target: Histone acetyltransferase KAT6A, both winged helices, GST fusion (KAT6A, Homo sapiens, UniProt Q92794, residues 1-181)
Notes: 8-mer, flanks averaged, mean of 2 arrays, mostly near background
Residues (chain): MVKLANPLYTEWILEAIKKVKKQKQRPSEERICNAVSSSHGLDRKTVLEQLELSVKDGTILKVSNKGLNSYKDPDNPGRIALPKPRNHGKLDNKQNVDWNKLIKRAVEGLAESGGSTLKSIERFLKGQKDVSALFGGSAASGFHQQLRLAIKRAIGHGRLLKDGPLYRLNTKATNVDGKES
| Sequence | E-score |
| --- | --- |
| CACGACAA | -0.069 |
| AAAAGTTT | -0.0477 |
| ATAAATAA | 0.0551 |
| TCAAATGA | -0.139 |
| CGGGATAA | 0.151 |
| CGTACGTC | 0.0802 |
| CAGCGTCC | 0.127 |
| GAGTCTAC | 0.00038 |

Set 3 — cell line: HEK-293T; observed: pseudovirus infection; technique: FDA-approved drug library screen; organism: VSV pseudotyped with SARS-CoV-2 spike; concentration: 10 µM; time: 16 h; relative to: vehicle-treated
| SMILES | GFP-positive cells |
| --- | --- |
| CC(=O)OCC(=O)[C@@]1(O)CC[C@H]2[C@@H]3CCC4=CC(=O)CC[C@]4(C)[C@H]3[C@@H](O)C[C@@]21C | 92.8% |
| CCN[C@H]1CN(CCCOC)S(=O)(=O)c2sc(S(N)(=O)=O)cc21 | 98.7% |
| COc1cc(N)c(Cl)cc1C(=O)NC1CCN(CCCOc2ccc(F)cc2)CC1OC (stereo not shown) | 73.6% |

Set 4 — technique: universal PBM; form: double-stranded DNA, one strand shown; sample: in vitro; concentration: 600 nM; direction: higher = stronger binding
Target: Sal-like protein 4, full length isoform A (SALL4, Homo sapiens, UniProt Q9UJQ4, residues 1-1053)
Sequence of UniProt Q9UJQ4 (whole entry, looked up): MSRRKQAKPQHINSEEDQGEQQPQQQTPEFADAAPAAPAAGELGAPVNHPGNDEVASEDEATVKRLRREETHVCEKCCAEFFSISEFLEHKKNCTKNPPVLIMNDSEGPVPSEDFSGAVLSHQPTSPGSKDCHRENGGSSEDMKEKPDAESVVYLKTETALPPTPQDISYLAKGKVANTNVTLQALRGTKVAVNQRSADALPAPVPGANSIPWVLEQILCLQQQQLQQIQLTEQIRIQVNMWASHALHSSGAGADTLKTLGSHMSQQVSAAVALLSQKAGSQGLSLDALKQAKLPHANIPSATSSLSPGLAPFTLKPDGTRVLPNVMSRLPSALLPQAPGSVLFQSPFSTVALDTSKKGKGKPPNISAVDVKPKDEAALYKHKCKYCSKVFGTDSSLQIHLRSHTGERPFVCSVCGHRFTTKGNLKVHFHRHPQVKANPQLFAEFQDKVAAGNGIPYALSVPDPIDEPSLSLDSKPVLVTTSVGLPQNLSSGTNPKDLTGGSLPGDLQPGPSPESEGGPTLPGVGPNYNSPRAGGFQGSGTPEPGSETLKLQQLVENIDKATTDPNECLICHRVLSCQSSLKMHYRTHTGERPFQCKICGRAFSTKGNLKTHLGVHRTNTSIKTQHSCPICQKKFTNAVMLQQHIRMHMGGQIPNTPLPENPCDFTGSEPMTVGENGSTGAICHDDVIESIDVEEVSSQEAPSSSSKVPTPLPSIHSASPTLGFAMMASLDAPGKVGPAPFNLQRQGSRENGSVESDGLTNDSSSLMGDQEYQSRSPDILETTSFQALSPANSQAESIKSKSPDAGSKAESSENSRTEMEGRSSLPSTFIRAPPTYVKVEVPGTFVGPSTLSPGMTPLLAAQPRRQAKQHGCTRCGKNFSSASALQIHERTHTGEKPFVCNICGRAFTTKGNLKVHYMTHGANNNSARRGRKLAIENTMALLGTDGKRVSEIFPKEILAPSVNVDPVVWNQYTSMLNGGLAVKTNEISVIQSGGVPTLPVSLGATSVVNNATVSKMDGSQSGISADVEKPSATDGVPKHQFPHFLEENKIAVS
Notes: 8-mer, flanks averaged, mean of replicates
| Sequence | E-score |
| --- | --- |
| GTTGCCCA | -0.025 |
| TCACATCA | 0.149 |
| ATCCAACG | -0.0729 |
| ATTGTACC | 0.11 |
| CACGTGAC | -0.0494 |
| ATTTGGTC | 0.00102 |
| AATAGAGA | 0.211 |
| CGTAAAGA | 0.0224 |

Set 5 — observed: enzyme activity; mode: inhibitor; concentration: 20 µM
Target: Replicase polyprotein 1ab, polymerase (rep, Severe acute respiratory syndrome coronavirus 2, UniProt P0DTD1)
| SMILES | inhibition |
| --- | --- |
| CCOC(=O)N1c2ccc(C(F)(F)F)cc2[C@@H](N(Cc2cc(C(F)(F)F)cc(C(F)(F)F)c2)C(=O)OC)C[C@H]1CC | 3.96% |
| COc1cc2nc(N3CCN(C(=O)C4COc5ccccc5O4)CC3)nc(N)c2cc1OC (stereo not shown) | 3.38% |
| CCn1cc(C(=O)O)c(=O)c2cnc(N3CCNCC3)nc21 | 22.6% |
| O=c1cc(-c2ccccc2)oc2cc(O)cc(O)c12 | 1.75% |
| CC(C)(CO)[C@@H](O)C(=O)NCCC(=O)O | 3% |
| COc1ccc(S(=O)(=O)Nc2cccnc2Nc2ccc(O)cc2)cc1 | -5.73% |
| N#C/C(=C\c1cn(-c2ccccc2)c2ccccc12)C(=O)O | 1.28% |
| C/C=C(/C(=C/C)c1ccc(O)cc1)c1ccc(O)cc1 | -5.53% |
| CN1CCN(c2nc(C3=C(c4c[nH]c5ccccc45)C(=O)NC3=O)c3ccccc3n2)CC1 | 0.33% |
| CNCC[C@@H](Oc1ccccc1C)c1ccccc1 | -9.16% |
| Nc1ccc(C(=O)O)cc1 | 7.43% |
| CO[C@@H]1COCC[C@@H]1N[C@@H]1CC[C@@](C(=O)N2CCc3ncc(C(F)(F)F)cc3C2)(C(C)C)C1 | 0.44% |
| CCCCCCCCCC(=O)O[C@H]1CC[C@H]2[C@@H]3CCC4=CC(=O)CC[C@@H]4[C@H]3CC[C@]12C | 2.84% |
| C[N+](C)(C)CC#CCN1CCCC1=O | 0.17% |
| COc1nc(N)nc2c1ncn2[C@@H]1O[C@H](CO)[C@@H](O)[C@@H]1O | -0.71% |
| CCCCCCCCCC(=O)OC1(c2ccc(Cl)cc2)CCN(CCCC(=O)c2ccc(F)cc2)CC1 | -6.13% |
| CC(CNC(=O)c1cccnc1)NC(=O)c1cccnc1 (stereo not shown) | -5.4% |
| N=C(N)SCCc1c[nH]cn1 | 1% |
| CNC(=O)c1ccccc1Nc1nc(Nc2ccc3c(c2OC)CCC[C@H](N2CCN(CCO)CC2)C3)ncc1Cl | 5.62% |
| CCO[C@@H]1OC(=O)C[C@@H]1NC(=O)[C@@H]1CCCN1C(=O)[C@@H](NC(=O)c1ccc(N)c(Cl)c1)C(C)(C)C | 0.38% |
| CCCS(=O)(=O)Nc1ccc(F)c(C(=O)c2c[nH]c3ncc(Cl)cc23)c1F | -5.16% |
| CO[C@H]1CC[C@H](N2C(=O)CNc3ncc(-c4ccc(C(C)(C)O)nc4)nc32)CC1 | 5.72% |
| CCc1cc(C(C)=O)c(O)cc1OCCCCCC(C)(C)c1nn[nH]n1 | 7.01% |
| CC1=C(C)C(=O)C(C(CCCCCC(=O)O)c2ccccc2)=C(C)C1=O (stereo not shown) | -4.46% |
| Cc1ccc(O)c(N=Nc2ccccc2)n1 | 0.88% |

Set 6 — observed: enzyme activity; mode: inhibitor; concentration: 20 µM; notes: hit confirmation
Target: Replicase polyprotein 1ab, main protease (rep, Severe acute respiratory syndrome coronavirus 2, UniProt P0DTD1)
| SMILES | inhibition [%] |
| --- | --- |
| Cn1sc(=O)n(Cc2ccccc2)c1=O | 110 |
| CC1=NN(c2ccc(C(=O)O)cc2)C(=O)C1=Cc1ccc(-c2cc(C)c(C)cc2[N+](=O)[O-])o1 | 25.3 |
| O=[N+]([O-])C(Br)(CO)CO | 100 |

Some of these lines once more (set 2):
| Sequence | E-score |
| --- | --- |
| CACGACAA | -0.069 |
| AAAAGTTT | -0.0477 |
| ATAAATAA | 0.0551 |
| TCAAATGA | -0.139 |
| CGGGATAA | 0.151 |
| CGTACGTC | 0.0802 |
